Measured values of several laboratories.
A part holds a random share of what one study measured.
Chain of UniProt Q8IY84 (whole entry, looked up): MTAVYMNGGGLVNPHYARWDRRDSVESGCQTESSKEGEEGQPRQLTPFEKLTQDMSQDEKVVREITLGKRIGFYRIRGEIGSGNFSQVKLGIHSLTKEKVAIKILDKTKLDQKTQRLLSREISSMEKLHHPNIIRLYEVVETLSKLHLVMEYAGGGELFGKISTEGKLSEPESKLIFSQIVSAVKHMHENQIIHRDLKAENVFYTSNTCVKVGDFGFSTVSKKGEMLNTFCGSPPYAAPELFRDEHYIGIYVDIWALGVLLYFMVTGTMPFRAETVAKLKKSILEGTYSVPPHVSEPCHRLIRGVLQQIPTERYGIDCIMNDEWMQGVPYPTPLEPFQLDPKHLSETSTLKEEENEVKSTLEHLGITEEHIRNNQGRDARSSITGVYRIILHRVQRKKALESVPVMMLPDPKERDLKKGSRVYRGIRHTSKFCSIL
Chain of UniProt Q04771 (whole entry, looked up): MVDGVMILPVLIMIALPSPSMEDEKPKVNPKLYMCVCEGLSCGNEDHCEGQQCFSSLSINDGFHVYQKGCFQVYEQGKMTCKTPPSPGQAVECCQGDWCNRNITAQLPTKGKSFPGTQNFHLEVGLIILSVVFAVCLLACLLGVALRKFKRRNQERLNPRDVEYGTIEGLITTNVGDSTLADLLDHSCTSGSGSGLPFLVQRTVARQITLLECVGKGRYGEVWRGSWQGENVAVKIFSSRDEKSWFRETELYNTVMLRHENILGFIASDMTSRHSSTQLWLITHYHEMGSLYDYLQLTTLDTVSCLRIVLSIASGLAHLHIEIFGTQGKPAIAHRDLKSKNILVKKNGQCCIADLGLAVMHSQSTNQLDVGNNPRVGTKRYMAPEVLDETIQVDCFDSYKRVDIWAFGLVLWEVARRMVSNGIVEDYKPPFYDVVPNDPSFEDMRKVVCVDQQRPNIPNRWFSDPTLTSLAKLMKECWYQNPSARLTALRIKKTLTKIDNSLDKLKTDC
Chain of UniProt Q9NQU5 (whole entry, looked up): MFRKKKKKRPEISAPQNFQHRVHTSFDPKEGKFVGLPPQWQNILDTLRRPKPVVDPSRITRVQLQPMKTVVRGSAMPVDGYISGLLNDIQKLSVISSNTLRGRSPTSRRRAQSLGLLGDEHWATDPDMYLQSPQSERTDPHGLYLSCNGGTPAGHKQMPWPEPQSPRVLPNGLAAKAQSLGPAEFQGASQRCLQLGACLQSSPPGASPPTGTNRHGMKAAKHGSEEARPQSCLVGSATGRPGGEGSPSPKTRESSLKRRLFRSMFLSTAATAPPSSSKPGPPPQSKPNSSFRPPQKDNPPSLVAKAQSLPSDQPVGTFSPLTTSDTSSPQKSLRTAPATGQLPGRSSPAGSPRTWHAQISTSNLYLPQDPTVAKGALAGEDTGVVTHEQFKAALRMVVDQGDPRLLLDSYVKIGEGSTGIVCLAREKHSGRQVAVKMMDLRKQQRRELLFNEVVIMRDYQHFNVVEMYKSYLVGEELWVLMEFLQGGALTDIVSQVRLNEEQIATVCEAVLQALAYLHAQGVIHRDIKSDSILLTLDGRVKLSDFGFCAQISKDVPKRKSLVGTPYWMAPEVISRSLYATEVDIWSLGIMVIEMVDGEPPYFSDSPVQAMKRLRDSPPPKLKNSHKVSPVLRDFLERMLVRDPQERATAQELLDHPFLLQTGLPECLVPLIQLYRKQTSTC
Chain of UniProt Q9BVS4 (whole entry, looked up): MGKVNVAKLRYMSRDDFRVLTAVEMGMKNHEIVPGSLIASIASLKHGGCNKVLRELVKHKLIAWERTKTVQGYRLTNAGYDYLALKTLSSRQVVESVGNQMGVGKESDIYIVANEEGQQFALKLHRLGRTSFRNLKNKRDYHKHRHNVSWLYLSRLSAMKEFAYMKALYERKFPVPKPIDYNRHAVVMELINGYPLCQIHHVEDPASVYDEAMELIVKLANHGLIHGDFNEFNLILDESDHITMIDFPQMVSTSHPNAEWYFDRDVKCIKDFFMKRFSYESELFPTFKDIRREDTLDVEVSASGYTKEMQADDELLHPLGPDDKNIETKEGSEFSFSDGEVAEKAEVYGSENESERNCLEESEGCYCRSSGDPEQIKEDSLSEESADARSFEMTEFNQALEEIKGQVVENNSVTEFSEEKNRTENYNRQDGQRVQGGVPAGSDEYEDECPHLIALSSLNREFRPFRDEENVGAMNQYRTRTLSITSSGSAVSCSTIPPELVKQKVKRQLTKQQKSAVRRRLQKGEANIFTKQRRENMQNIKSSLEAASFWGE
Chain of UniProt P07949 (whole entry, unmodified, looked up): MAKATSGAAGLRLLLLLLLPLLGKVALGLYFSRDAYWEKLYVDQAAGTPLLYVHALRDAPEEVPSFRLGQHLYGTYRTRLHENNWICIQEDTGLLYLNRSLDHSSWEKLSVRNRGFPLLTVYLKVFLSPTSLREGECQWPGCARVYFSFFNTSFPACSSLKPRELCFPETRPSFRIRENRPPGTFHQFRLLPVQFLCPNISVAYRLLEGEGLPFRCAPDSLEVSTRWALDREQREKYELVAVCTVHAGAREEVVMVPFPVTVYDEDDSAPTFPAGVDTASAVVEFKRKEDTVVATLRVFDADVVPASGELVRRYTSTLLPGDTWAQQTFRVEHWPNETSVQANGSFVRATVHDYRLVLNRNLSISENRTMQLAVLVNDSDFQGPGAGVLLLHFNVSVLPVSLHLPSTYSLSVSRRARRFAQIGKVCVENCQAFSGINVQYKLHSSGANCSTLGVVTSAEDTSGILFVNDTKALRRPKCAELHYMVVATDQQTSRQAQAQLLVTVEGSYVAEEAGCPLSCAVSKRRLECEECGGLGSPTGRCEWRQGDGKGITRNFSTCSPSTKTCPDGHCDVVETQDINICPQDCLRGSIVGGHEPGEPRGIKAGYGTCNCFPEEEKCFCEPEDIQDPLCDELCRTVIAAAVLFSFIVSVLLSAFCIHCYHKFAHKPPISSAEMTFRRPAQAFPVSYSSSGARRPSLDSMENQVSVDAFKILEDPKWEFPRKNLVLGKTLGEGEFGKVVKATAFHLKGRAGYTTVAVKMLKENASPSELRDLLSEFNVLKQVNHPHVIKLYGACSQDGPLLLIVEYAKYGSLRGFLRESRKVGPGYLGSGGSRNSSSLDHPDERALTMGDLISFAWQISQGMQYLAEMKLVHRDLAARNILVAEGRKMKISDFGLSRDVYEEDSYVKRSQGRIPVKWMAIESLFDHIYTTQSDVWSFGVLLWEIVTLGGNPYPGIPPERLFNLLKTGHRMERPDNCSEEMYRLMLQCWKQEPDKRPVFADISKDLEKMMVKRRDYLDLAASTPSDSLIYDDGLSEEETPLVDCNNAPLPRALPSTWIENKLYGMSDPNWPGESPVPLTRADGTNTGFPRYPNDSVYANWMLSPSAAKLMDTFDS
Chain of UniProt O75914 (whole entry, looked up): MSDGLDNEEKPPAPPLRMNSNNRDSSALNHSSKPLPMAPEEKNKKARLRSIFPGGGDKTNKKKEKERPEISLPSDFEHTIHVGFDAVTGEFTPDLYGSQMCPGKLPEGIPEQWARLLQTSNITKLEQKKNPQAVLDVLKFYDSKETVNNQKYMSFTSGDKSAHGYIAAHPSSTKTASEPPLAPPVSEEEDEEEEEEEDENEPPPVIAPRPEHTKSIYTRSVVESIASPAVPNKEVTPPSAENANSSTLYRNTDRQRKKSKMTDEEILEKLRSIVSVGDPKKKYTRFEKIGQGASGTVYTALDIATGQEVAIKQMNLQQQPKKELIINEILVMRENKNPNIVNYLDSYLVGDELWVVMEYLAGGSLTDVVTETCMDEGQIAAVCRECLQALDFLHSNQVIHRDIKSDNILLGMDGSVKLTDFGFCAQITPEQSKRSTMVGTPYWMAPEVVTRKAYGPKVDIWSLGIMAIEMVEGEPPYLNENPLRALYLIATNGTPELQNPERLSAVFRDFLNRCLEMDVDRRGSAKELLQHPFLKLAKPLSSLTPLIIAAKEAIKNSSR

Block 1
Compound: CC#CC(=O)N1CCC[C@H]1c1nc(-c2ccc(C(=O)Nc3ccccn3)cc2)c2c(N)nccn12
Mode: inhibitor
Tested at: 1 µM
The inhibition was 33% (Tyrosine-protein kinase receptor TYRO3 (TYRO3, Homo sapiens, UniProt Q06418); enzyme activity).
Serine/threonine-protein kinase tousled-like 1 (TLK1, Homo sapiens, UniProt Q9UKI8); enzyme activity — inhibition: 8%.
Casein kinase II subunit alpha' (CSNK2A2, Homo sapiens, UniProt P19784); enzyme activity — inhibition: 7%.
The inhibition was 2% (Mitogen-activated protein kinase kinase kinase kinase 3 (MAP4K3, Homo sapiens, UniProt Q8IVH8); enzyme activity).
For Serine/threonine-protein kinase TAO2 (TAOK2, Homo sapiens, UniProt Q9UL54); enzyme activity: inhibition read 27%.
The inhibition was 12% (Tyrosine-protein kinase receptor Tie-1 (TIE1, Homo sapiens, UniProt P35590); enzyme activity).
The inhibition was 0% (Phosphorylase b kinase gamma catalytic chain, liver/testis isoform (PHKG2, Homo sapiens, UniProt P15735); enzyme activity).
Proto-oncogene tyrosine-protein kinase receptor Ret (RET, Homo sapiens, UniProt P07949, V804L); enzyme activity — inhibition: 22%.
Serine/threonine-protein kinase TAO3 (TAOK3, Homo sapiens, UniProt Q9H2K8); enzyme activity — inhibition: 8%.
Cyclin-dependent kinase 19 (CDK19, Homo sapiens, UniProt Q9BWU1) — inhibition: 10%.
For Fibroblast growth factor receptor 3 (FGFR3, Homo sapiens, UniProt P22607, G697C); enzyme activity: inhibition read 15%.

Block 2
SMILES: CC(=O)N1CCC(c2ccc(C(=O)NC(=N)N)cc2C(F)(F)F)CC1
Method: competition with immobilised ligand
Tested at: 1 µM
For Cyclin-dependent kinase 3 (CDK3, Homo sapiens, UniProt Q00526); cell-free assay: remaining binding read 100%.
The remaining binding was 100% (Serine/threonine-protein kinase SIK3 (SIK3, Homo sapiens, UniProt Q9Y2K2); cell-free assay).
For G protein-coupled receptor kinase 3 (GRK3, Homo sapiens, UniProt P35626); cell-free assay: remaining binding read 92%.
For Serine/threonine-protein kinase NIM1 (NIM1K, Homo sapiens, UniProt Q8IY84); cell-free assay: remaining binding read 100%.
Ephrin type-A receptor 6 (EPHA6, Homo sapiens, UniProt Q9UF33); cell-free assay — remaining binding: 96%.
The remaining binding was 100% (Ephrin type-A receptor 3 (EPHA3, Homo sapiens, UniProt P29320); cell-free assay).
Tyrosine-protein kinase ABL1, phosphorylated (ABL1, Homo sapiens, UniProt P00519, F317L); cell-free assay — remaining binding: 92%.
For Receptor tyrosine-protein kinase erbB-2 (ERBB2, Homo sapiens, UniProt P04626); cell-free assay: remaining binding read 92%.
For Interleukin-1 receptor-associated kinase 4 (IRAK4, Homo sapiens, UniProt Q9NWZ3); cell-free assay: remaining binding read 100%.
Tyrosine-protein kinase ABL1, non-phosphorylated (ABL1, Homo sapiens, UniProt P00519, Q252H); cell-free assay — remaining binding: 79%.
Serine/threonine-protein kinase ULK3 (ULK3, Homo sapiens, UniProt Q6PHR2); cell-free assay — remaining binding: 80%.
The remaining binding was 100% (Serine/threonine-protein kinase RIO2 (RIOK2, Homo sapiens, UniProt Q9BVS4); cell-free assay).
Ephrin type-B receptor 4 (EPHB4, Homo sapiens, UniProt P54760); cell-free assay — remaining binding: 100%.
Non-receptor tyrosine-protein kinase TYK2, JH2 (TYK2, Homo sapiens, UniProt P29597); cell-free assay — remaining binding: 100%.
It gave 100% for remaining binding (Epidermal growth factor receptor (EGFR, Homo sapiens, UniProt P00533); cell-free assay).
The remaining binding was 100% (Protein kinase C eta type (PRKCH, Homo sapiens, UniProt P24723); cell-free assay).
The remaining binding was 100% (Phosphatidylinositol 4,5-bisphosphate 3-kinase catalytic subunit alpha isoform (PIK3CA, Homo sapiens, UniProt P42336); cell-free assay).
It gave 100% for remaining binding (Mitogen-activated protein kinase 10 (MAPK10, Homo sapiens, UniProt P53779); cell-free assay).
It gave 100% for remaining binding (Serine/threonine-protein kinase PAK 6 (PAK6, Homo sapiens, UniProt Q9NQU5); cell-free assay).
For Tyrosine-protein kinase ABL1, phosphorylated (ABL1, Homo sapiens, UniProt P00519, E255K); binding: remaining binding read 100%.
For Serine/threonine-protein kinase PAK 3 (PAK3, Homo sapiens, UniProt O75914); cell-free assay: remaining binding read 84%.
Activin receptor type-1 (ACVR1, Homo sapiens, UniProt Q04771); cell-free assay — remaining binding: 100%.
For Misshapen-like kinase 1 (MINK1, Homo sapiens, UniProt Q8N4C8); cell-free assay: remaining binding read 95%.
The remaining binding was 100% (3-phosphoinositide-dependent protein kinase 1 (PDPK1, Homo sapiens, UniProt O15530); cell-free assay).

Block 3
Cell line: A-375
Tested at: 100 µM
Time: 18 h
With `CCC(C)(C)C(=O)O[C@H]1C[C@@H](C)C=C2C=C[C@H](C)[C@H](CC[C@@H]3C[C@@H](O)CC(=O)O3)[C@H]21` the viability was 76.5%.
The viability of `CC(=O)Oc1cc2c(s1)CCN(C(C(=O)C1CC1)c1ccccc1F)C2` (centres unmarked) is reported as 71.8%.
The viability of `Cc1nc(C)c(Cl)c(O)c1Cl` is reported as 105%.
For `O=C(O)c1cccnc1Nc1cccc(C(F)(F)F)c1`, the viability was 84.5%.
The viability of `CCCCCCCCCCC[C@@H](C[C@@H]1OC(=O)[C@H]1CCCCCC)OC(=O)[C@H](CC(C)C)NC=O` is reported as 22.8%.
`O=c1c(-c2ccc(O)cc2)coc2cc(O[C@@H]3O[C@H](CO)[C@@H](O)[C@H](O)[C@H]3O)ccc12` gave a viability of 98.1%.
For `COc1nc2ccc(Br)cc2cc1[C@@H](c1ccccc1)[C@@](O)(CCN(C)C)c1cccc2ccccc12`, the viability was 31.8%.
`COc1ccc(CN(CCN(C)C)c2ccccn2)cc1` has a viability of 92.2%.
For `NC[C@@H]1O[C@H](O[C@H]2[C@@H](O)[C@H](O[C@@H]3[C@@H](O)[C@H](N)C[C@H](N)[C@H]3O[C@H]3O[C@H](CN)[C@@H](O)[C@H](O)[C@H]3N)O[C@@H]2CO)[C@H](N)[C@@H](O)[C@@H]1O`, the viability was 106%.
For `c1ccc(-c2ccc(C(c3ccccc3)n3ccnc3)cc2)cc1` (centres unmarked), the viability was 8.23%.
`CCCCCCOC(=O)NC(=N)c1ccc(NCc2nc3cc(C(=O)N(CCC(=O)OCC)c4ccccn4)ccc3n2C)cc1` gave a viability of 36.7%.
With `CCCNC(C)C(=O)Nc1ccccc1C` (centres unmarked) the viability was 92.8%.
`c1cc(CN2CCCNCCNCCCNCC2)ccc1CN1CCCNCCNCCCNCC1` has a viability of 106%.
The viability of `OC(CCN1CCCCC1)(c1ccccc1)C1C[C@@H]2C=C[C@H]1C2` (some centres unmarked) is reported as 36.4%.
`c1ccc([C@H]2CN3CCSC3=N2)cc1` gave a viability of 101%.
The viability of `CCCCCCCCCCCCCCCC[N+](C)(C)CCN(Cc1ccc(OC)cc1)c1ncccn1` is reported as 9.89%.
For `CCOC(=O)C1=C(C)NC(C)=C(C(=O)OCC)C1c1ccccc1/C=C/C(=O)OC(C)(C)C`, the viability was 9.9%.
`CC(C)(C)c1ccc(C(O)CCCN2CCC(C(O)(c3ccccc3)c3ccccc3)CC2)cc1` (centres unmarked) has a viability of 8.25%.

Block 4
Target: Serine/threonine-protein kinase ULK1 (ULK1, Homo sapiens, UniProt O75385)
Chain of UniProt O75385 (whole entry, looked up): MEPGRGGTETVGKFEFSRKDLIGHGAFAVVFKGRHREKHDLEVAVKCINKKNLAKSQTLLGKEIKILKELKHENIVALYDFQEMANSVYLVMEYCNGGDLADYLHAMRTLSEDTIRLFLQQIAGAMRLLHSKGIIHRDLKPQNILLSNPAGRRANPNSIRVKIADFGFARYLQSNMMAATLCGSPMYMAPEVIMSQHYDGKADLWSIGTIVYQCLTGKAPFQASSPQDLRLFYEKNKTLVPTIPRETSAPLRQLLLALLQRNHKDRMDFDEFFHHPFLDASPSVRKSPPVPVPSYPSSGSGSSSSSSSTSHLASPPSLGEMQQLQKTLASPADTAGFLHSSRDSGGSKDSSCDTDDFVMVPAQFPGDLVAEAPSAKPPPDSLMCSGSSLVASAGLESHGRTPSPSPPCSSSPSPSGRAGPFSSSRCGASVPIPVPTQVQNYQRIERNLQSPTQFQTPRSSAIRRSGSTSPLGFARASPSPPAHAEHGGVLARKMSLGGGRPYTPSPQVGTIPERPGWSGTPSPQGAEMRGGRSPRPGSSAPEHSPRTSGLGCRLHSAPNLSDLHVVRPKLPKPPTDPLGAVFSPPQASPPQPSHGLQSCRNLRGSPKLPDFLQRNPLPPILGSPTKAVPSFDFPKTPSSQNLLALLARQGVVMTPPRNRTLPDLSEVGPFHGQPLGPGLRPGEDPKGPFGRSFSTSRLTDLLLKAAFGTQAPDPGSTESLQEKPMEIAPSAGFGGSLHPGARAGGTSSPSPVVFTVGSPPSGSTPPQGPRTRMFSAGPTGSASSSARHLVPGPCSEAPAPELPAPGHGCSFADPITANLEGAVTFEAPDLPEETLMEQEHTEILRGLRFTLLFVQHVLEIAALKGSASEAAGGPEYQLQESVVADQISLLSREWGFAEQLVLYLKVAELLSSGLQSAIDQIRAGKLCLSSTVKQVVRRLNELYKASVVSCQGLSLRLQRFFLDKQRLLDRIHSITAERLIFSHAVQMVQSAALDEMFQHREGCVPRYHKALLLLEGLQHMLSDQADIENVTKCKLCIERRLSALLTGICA
Effect on: enzyme activity
Mode: inhibitor
Tested at: 0.5 µM
Baseline: control
For `CC(C)[C@H](CO)Nc1nc(Nc2cccc(Cl)c2)c2ncn(C(C)C)c2n1`, the remaining activity was 67.5%.
The remaining activity of `CC(C)c1nn(-c2c(Cl)cccc2Cl)c2nc(Cc3ccc(OCCO)cc3)[nH]c(=O)c12` is reported as 125%.
`COc1ccc(-c2cnc3c(-c4ccsc4)cnn3c2)cc1` gave a remaining activity of 79%.
The remaining activity of `COc1cc2ncc(-c3ccccc3)nc2cc1OC` is reported as 84.5%.
The remaining activity of `CCOc1cc2ncnc(Nc3cccc(Br)c3)c2cc1OCC` is reported as 98.8%.
`CN(C)CCCn1cc(C2=C(c3c[nH]c4ccccc34)C(=O)NC2=O)c2ccccc21` gave a remaining activity of 84.7%.
With `O=C(Nc1ccc(Cl)cc1)c1ccccc1NCc1ccncc1` the remaining activity was 86.9%.
`CC(=O)O/N=C1/C(c2c(O)[nH]c3cc(Br)ccc23)=Nc2ccccc21` has a remaining activity of 95.6%.
`CS(=O)(=O)CCNCc1ccc(-c2ccc3ncnc(Nc4ccc(OCc5cccc(F)c5)c(Cl)c4)c3c2)o1` has a remaining activity of 95.4%.
`COc1ccc(Cl)cc1NC(=O)Nc1cc(C)nc2ccccc12` has a remaining activity of 91.2%.
The remaining activity of `COc1cc2ncnc(Nc3ccc(OCc4ccccc4)cc3)c2cc1OC` is reported as 107%.
The remaining activity of `CCC(=O)Nc1ccc2ncnc(Nc3cccc(Br)c3)c2c1` is reported as 103%.
For `Nc1[nH]nc2nnc(-c3c(-c4ccccc4)nn4ccccc34)cc12`, the remaining activity was 97.1%.
With `COc1cc2ncnc(N3CCN(C(=O)Nc4ccc(Oc5ccccc5)cc4)CC3)c2cc1OC` the remaining activity was 110%.
For `Cn1cnc2cc3c(Nc4cccc(Br)c4)ncnc3cc21`, the remaining activity was 113%.
For `Cc1ccc(NC(=O)c2ccc(CN3CCN(C)CC3)cc2)cc1Nc1nccc(-c2cccnc2)n1`, the remaining activity was 93.6%.
For `O=C1NC(=O)/C(=C/c2ccc3nccnc3c2)S1`, the remaining activity was 100%.
The remaining activity of `Cn1cc(/C=C2\C(=O)Nc3ccc(S(N)(=O)=O)cc32)c2ccccc21` is reported as 27.5%.
`Cc1nc(Nc2ncc(C(=O)Nc3c(C)cccc3Cl)s2)cc(N2CCN(CCO)CC2)n1` has a remaining activity of 85.5%.
`CCN1/C(=C/C(C)=O)Sc2ccc(OC)cc21` has a remaining activity of 115%.
`O=c1cc(N2CCOCC2)oc2c1ccc1ccccc12` gave a remaining activity of 96.1%.
